Published values collected from several papers.
Every numbered part comes from another study and shows a few of its results, in no order.

Study 1 — technique: RNA Bind-n-Seq; molecule type: RNA; sample: in vitro; tested at: 1 µM; setting: whole 134-nt RNA, ends assumed; with: 150 mM KCl; baseline: input library; reading: higher = stronger binding; quantity: log2 enrichment
Target: Ras GTPase-activating protein-binding protein 1, RRM domain (G3BP1, Homo sapiens, UniProt Q13283)
Chain of UniProt Q13283 (whole entry, looked up): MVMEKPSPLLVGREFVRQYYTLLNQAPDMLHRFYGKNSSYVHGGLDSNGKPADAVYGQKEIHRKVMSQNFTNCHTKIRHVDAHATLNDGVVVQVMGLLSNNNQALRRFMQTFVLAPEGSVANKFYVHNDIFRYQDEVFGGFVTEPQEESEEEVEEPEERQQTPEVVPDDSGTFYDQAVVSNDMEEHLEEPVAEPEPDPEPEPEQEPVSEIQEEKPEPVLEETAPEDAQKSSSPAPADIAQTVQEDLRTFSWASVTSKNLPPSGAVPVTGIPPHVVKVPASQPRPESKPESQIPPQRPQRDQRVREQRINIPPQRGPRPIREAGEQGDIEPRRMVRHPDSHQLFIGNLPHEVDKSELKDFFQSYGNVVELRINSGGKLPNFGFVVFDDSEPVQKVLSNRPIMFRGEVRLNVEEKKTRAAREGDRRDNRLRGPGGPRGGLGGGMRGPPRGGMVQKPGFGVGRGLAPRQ
Shared flanks, not repeated: GGGAGUUCUACAGUCCGACGAUC … UGGAAUUCUCGGGUGUCAAGG
UGGUGACCUACCUGGACGUCCGGAGCUGCCUUGGACACCUAGGCUACCUGGGCUACCCCACCCUCUGUGAGCAGGACCAGGCCCAUGCCA: -0.163
AGUCCUGUGCUACACAUCGUAUGUACCGAAUCGGGGUUUUUUUGGGGAGGGGUGGGGAAAGUAUUAUGUUACGCCGUUCGGAUCUGCACU: 0.822
UCCUGUGCUACACAUCGUAUGUACCGAAUCGGGGAAAAAGGGGUGGGGAAAAAAAGGGGAAAGUAUUAUGUUACGCCGUUCGGAUCUGCA: 0.655
CACAGACAACACGCACCCACACAGACACAGAGGGAAGGGGUGGGGAUGGGGACAGGGUGCACAGCAGGGCGGGGUAGGACCCCAGCCCCU: 0.237
GCAGGAAGUAAAAACAAAUGGAAAUGCUUCGGAUAGUGGCAGGGGUGGGGGUUGUUAAGGAAAGGGUGGGAUGGGAGUGGGUAAAGAGUU: 0.914
CCUGUGCUACACAUCGUAUGUACCGAAUCGGGGAAAAAGGGGUUUUUGGGGUUUUUGGGGAAAGUAUUAUGUUACGCCGUUCGGAUCUGC: 0.955
GUCCUGUGCUACACAUCGUAUGUACCGAAUCGGGUUUUUGGGGUUUUUGGGGUUUUUGGAAAGUAUUAUGUUACGCCGUUCGGAUCUGCA: -0.214
UGGCCCUGGUGGCAUGCGGGGAGGAAGAGAUGGCCUCAUGGAUCGUGGUGGUCCCGGUGGAAUGUUCAGAGGUGGCCGUGGUGGAGACAG: 0.686
ACCAUGCAGGUGGGCAUCUUUGGGAAGUGGGGCAAGGGGGGGAUAGGGAGGGGGGUAACCCUUUGGGAACAGGUGGUCCCAGGUCGUUUC: 1.04
GCAGGAAGUAAAAACAAAUGGAAAUGCUUCGGAUAGUGGCAGGGGUGGGGGUUGCUAAGCAAAGGGUGGGAUGGGAGUGGGUAAAGAGUU: 1.11
UUUUAAAGUGUUCUCCACCACACUUGGGCAUUUAUCUGUUUCUUUAAAUGGCCUUCUCUGUUUCUUGUUUGCAGGCAGCUAUCAAUGGUG: -0.173
ACCAUGCAGGUGGGCAUCUUUGGGAAGUGGGGCAAAAGGGGGAUAGGGAGGGGGGUAACACUUUGGGAACAGGUGGUCCCAGGUCGUUUC: -0.411
UUCAGUUUCCCAAACCUGAGAUGAUCUGUCAGCUGGAGAACUGGGACGAGCAGUGGAUCCUGGAUCUACCGAGAACUGGGAAUAGGAAGG: -0.18
UCUUCAGAGGCCCCACAGUAUCAAAUAUCCGCCUGGCUGGAUUAGAGUAUGUUCUGCACUUCACUGCACUGAAUGGGAAGAUUUACUUUC: -0.153

Study 2 — technique: aptamer microarray, sandwich; molecule type: DNA with 2'F-ANA; sample: in vitro; tested at: 200 nM; with: Cy3 exosite-II aptamer, 400 nM; reading: higher = stronger binding; quantity: mean fluorescence intensity; sequence: GGTTGGTGTGGTTGG
Target: Prothrombin, mature alpha-thrombin (F2, Homo sapiens, UniProt P00734)
Setting: whole 15-mer aptamer, many near background
2'F-ANA at 1 3 5 7 8 10 13 14: 46.6 a.u.
2'F-ANA at 2 3 6 7 8 10 11 13 14: 221 a.u.
2'F-ANA at 2 7 10 11 12: 172 a.u.
2'F-ANA at 6 8 9 10 11 12 14: 112 a.u.
2'F-ANA at 3 5 9 12 15: 230 a.u.
2'F-ANA at 1 4 6 9 13 14 15: 46.8 a.u.
2'F-ANA at 1 3 4 7 8 11 15: 236 a.u.
2'F-ANA at 1 3 4 6 7 8 10 11 13 15: 59.1 a.u.
2'F-ANA at 3 4 5 6 8 9 10 13: 47.1 a.u.
2'F-ANA at 1 2 3 5 8 9 10 12 13 14 15: 65.3 a.u.
2'F-ANA at 2 4 6 7 8 9 14 15: 528 a.u.
2'F-ANA at 12 13 14: 264 a.u.
2'F-ANA at 3 5 6 8 12 13 14: 98.6 a.u.
2'F-ANA at 1 3 4 5 7 11 13 14: 47.6 a.u.
2'F-ANA at 1 2 3 4 5 9 10 11 13: 52.3 a.u.
2'F-ANA at 2 3 4 5 7 9 10: 89.2 a.u.
2'F-ANA at 2 5 6 7 9 10 11: 47.3 a.u.
2'F-ANA at 3 4 6 8 11 12 15: 844 a.u.

Study 3 — technique: protein binding microarray; molecule type: double-stranded DNA, one strand shown; sample: in vitro; tested at: not given; baseline: not given; reading: higher = stronger binding; quantity: E-score
Target: Histone acetyltransferase KAT6A, winged helix 1, GST fusion (KAT6A, Homo sapiens, UniProt Q92794, residues 1-85)
Setting: 8-mer, flanks averaged, mean of 2 arrays, mostly near background
Residues (chain): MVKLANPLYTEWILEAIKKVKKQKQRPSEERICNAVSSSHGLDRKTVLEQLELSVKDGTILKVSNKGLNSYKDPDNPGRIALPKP
CTCAATTC: -0.179
GGTAGCCA: -0.168
CCGCCGCA: 0.43
CCCATTCA: -0.166
CAACCGAG: -0.0426
AGCGGCGC: 0.427
CACACAGA: -0.189
CAAAAGAC: -0.0486
AGACTCTG: -0.329
ACCGTATC: 0.243
AGCTTTCA: -0.0661
CGAGACTC: -0.0709
ATAATGGG: -0.207
CCACATGA: -0.188
GTCCAAAC: -0.0837
CACAAAAA: -0.0773
GCAGCCAA: -0.0535
AGTCGTAC: -0.0316

Single results of other studies — organism: Saccharomyces cerevisiae; read-out: binding; technique: competitive growth deep sequencing; molecule type: peptide; strain: cyclin E1-Cln2 fusion strain; tested at: concentration not given; reading: direction not given
GSPLAKAFTSTGL — growth enrichment score (peptide library 1): 0.0156
GSPLKALFTSTGL — growth enrichment score (combined peptide libraries): 1
GSALKKLFTSTGL — growth enrichment score (peptide library 1): 0.466

Excerpt of the above (study 3):
CCGCCGCA: 0.43
CCACATGA: -0.188
GCAGCCAA: -0.0535
CACAAAAA: -0.0773
AGACTCTG: -0.329
